# Measurements collected from several papers.
# Parts stem from different laboratories: compare values within a part only.

# Block 1
# Target: Interferon regulatory factor 5, full length, phosphomimetic (IRF5, Homo sapiens, UniProt Q13568-2, residues 1-514, K96S/S451D/S453D/S456D/S462D)
# Method: protein-binding microarray
# Molecule type: double-stranded DNA, one strand shown
# Medium: in vitro
# Concentration: 250 nM
# Setting: 60-bp whole probe
# With: salmon DNA 0.4 mg/ml
# Relative to: random background probes
# Direction: higher = stronger binding
Sequence,log fluorescence [z-score]
GCCTAGCACTCAATTTTCATTTTGTGACTGTGCTAGGTCTTGATTCGCTTGACGCTGCTG,2.14
GCCTAGCACTAAGGTATCGGGACTGGGTTAGTGCTAGTCTTGATTCGCTTGACGCTGCTG,0.761
GCCTAGCACGACGGGATCGGTATCGGGACGTGCTAGGTCTTGATTCGCTTGACGCTGCTG,0.758
GCCTAGCACGACGGACTGGGGAATGGGGACGTGCTAGTCTTGATTCGCTTGACGCTGCTG,-0.45

# Block 2
# Target: Sal-like protein 4, full length isoform A (SALL4, Homo sapiens, UniProt Q9UJQ4, residues 1-1053)
# Chain of UniProt Q9UJQ4 (whole entry, looked up): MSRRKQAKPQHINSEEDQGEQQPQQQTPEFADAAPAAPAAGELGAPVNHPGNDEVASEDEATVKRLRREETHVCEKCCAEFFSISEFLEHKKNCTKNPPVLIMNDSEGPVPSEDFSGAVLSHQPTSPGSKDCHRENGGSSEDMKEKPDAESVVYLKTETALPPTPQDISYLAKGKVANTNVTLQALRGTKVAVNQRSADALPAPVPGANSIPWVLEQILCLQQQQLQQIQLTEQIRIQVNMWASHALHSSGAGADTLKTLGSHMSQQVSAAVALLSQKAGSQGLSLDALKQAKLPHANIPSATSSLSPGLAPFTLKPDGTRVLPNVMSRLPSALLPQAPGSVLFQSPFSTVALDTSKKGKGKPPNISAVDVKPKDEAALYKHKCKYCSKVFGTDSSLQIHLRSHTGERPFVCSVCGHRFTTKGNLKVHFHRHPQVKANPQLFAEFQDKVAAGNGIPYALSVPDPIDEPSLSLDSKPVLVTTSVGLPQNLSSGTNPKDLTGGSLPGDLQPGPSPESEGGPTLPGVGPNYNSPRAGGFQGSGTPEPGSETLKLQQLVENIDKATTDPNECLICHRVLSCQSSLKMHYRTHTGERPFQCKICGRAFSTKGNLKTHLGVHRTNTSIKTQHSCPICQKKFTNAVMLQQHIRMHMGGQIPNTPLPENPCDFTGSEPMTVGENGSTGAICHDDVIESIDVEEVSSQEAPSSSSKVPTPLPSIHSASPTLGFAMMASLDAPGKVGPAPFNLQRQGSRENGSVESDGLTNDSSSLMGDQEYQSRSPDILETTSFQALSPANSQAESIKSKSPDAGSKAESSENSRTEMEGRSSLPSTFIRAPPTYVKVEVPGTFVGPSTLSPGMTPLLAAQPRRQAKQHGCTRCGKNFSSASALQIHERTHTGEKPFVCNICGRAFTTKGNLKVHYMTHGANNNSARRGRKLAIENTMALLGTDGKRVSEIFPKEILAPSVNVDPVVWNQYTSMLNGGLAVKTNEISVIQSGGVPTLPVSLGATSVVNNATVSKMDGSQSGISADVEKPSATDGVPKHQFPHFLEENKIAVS
# Method: universal PBM
# Molecule type: double-stranded DNA, one strand shown
# Medium: in vitro
# Concentration: 600 nM
# Setting: 8-mer, flanks averaged, mean of replicates
# Direction: higher = stronger binding
Sequence,E-score
ATGCTTGG,0.0782
AGCCTCTA,-0.232
AAAAAGAT,0.281
AAGCTCTA,0.109

# Block 3
# Target: Histone acetyltransferase KAT6A, winged helix 1, GST fusion (KAT6A, Homo sapiens, UniProt Q92794, residues 1-85)
# Method: protein binding microarray
# Molecule type: double-stranded DNA, one strand shown
# Medium: in vitro
# Concentration: not given
# Setting: 8-mer, flanks averaged, mean of 2 arrays, mostly near background
# Relative to: not given
# Direction: higher = stronger binding
# Residues (chain): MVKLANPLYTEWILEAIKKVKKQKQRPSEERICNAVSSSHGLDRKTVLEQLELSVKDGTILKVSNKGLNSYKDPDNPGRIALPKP
Sequence,E-score
TCATATGA,-0.0506
AAGTTTGG,-0.069
ACCGCAGA,0.144
CCCCGATA,0.142
CCCCCGTC,0.273
ATACCTCG,-0.0822
CTCGCGAC,0.29

# Other studies, line by line
Molecule,target,test,test system,setting,scale,endpoint,value
"PhoQ, residues 284 288 289 292 302 303 AAQSYM","PhoP, residues 12 14 15 18 19 NYFRM (Escherichia coli, UniProt P23836)","Sort-seq, measured: YFP reporter",E. coli,"PhoQ-PhoP variant library, with: 10 µM Mg2+","relative to: high Mg2+ state, higher = stronger signaling",fold induction,16.6

# Some of these lines once more (block 2):
Sequence,E-score
AGCCTCTA,-0.232
AAAAAGAT,0.281
